Measured values pooled from the literature.
Parts stem from different laboratories: compare values within a part only.

Sample 1
Target: Ras GTPase-activating protein-binding protein 1, full length (G3BP1, Homo sapiens, UniProt Q13283)
Chain of UniProt Q13283 (whole entry, looked up): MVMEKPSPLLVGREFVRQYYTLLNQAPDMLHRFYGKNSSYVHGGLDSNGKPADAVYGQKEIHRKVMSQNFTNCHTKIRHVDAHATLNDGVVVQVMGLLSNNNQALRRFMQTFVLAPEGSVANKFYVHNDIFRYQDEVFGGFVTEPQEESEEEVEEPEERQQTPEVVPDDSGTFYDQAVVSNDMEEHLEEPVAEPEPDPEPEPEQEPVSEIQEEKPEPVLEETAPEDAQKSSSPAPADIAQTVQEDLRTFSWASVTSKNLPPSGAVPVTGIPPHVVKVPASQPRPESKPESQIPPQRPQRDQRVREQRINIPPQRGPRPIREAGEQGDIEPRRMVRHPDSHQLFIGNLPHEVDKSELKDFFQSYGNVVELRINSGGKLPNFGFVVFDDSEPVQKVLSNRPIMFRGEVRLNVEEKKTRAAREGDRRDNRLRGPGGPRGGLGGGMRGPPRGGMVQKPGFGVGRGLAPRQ
Method: RNA Bind-n-Seq
Form: RNA
Sample: in vitro
Tested at: 200 nM
Setting: whole 134-nt RNA, ends assumed
Added: 150 mM KCl
Baseline: input library
Direction: higher = stronger binding
| Oligonucleotide | log2 enrichment |
| --- | --- |
| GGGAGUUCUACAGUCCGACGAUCGCAGGAAGUAAAAACAAAUGGAAAUGCUUCGGAUAGUGUCAGGGGUGGGGGUUGCUAAGGAAAGGGUGGGAUGGGAGUGGGUAAAGAGUUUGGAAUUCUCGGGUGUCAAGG | 1.11 |
| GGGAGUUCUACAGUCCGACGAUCAGUCCUGUGCUACACAUCGUAUGUACCGAAUCGGGGAAAAGGGGAAAAGGAAAAGGGGAAAGUAUUAUGUUACGCCGUUCGGAUCUGCACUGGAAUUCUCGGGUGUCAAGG | 0.00659 |
| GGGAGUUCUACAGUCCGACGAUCCACAGACAACACGCACCCACACAGACACAGAGGGAAGGCGUUGGGAUGGGGACAGGGUGCACAGCAGGGCGGGGUAGGACCCCAGCCCCUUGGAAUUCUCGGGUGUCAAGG | 1.65 |
| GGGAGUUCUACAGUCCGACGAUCAAGUCCUGUGCUACACAUCGUAUGUACCGAAUCGGGUUUUUGGGAAAAAGGGUGGGAAAGUAUUAUGUUACGCCGUUCGGAUCUGCACUUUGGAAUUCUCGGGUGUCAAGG | 0.153 |
| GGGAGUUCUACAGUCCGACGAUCAGUCCUGUGCUACACAUCGUAUGUACCGAAUCGGGGUGGGGAAAAAGGGGAAAGGGGAAAGUAUUAUGUUACGCCGUUCGGAUCUGCACUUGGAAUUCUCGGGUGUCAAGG | 0.524 |
| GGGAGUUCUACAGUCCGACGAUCCAAGUCCUGUGCUACACAUCGUAUGUACCGAAUCGGUGGAAAAAGGUUUUUUUGGAAAGUAUUAUGUUACGCCGUUCGGAUCUGCACUUCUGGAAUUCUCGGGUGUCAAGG | -0.972 |
| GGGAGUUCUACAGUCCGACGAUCCCUCAAGUCCUGUGCUACACAUCGUAUGUACCGAAUCGGGUUGGUUGGUUGGAAAGUAUUAUGUUACGCCGUUCGGAUCUGCACUUCCAGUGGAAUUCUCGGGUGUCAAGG | -0.0535 |
| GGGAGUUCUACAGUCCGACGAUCCCUGUGCUACACAUCGUAUGUACCGAAUCGGUUUUUUGGGGUUUUUUGGGGUUUUUUGGGAAAGUAUUAUGUUACGCCGUUCGGAUCUGCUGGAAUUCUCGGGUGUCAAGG | -0.869 |

Sample 2
Target: Sal-like protein 4, full length isoform B (SALL4, Homo sapiens, UniProt Q9UJQ4-2, residues 1-616)
Method: universal PBM
Form: double-stranded DNA, one strand shown
Sample: in vitro
Tested at: not given
Setting: 8-mer, flanks averaged, mean of replicates
Direction: higher = stronger binding
| Oligonucleotide | E-score |
| --- | --- |
| TAGCTGGA | -0.0839 |
| ATGATCCA | 0.0256 |
| CTAGCGGA | -0.354 |
| CGTTTTAC | 0.123 |
| ATGCTACG | 0.0896 |
| GTAAATAC | 0.17 |
| CATCCAAC | 0.0197 |
| AAAGTTTG | 0.183 |

Mixed results
| SMILES | tested on | assay | system | setting | scale | endpoint | value |
| --- | --- | --- | --- | --- | --- | --- | --- |
| O=C(Nc1ccc(Cl)cn1)c1c2c(nc3ccccc13)C(=O)N(C1CCCCC1)C2 |  |  | human, microsomes or S9 | 2 µM, 0.5 h |  | remaining compound | 75.5% |
| COc1cc(C(=O)N2CCC(N3CCN(C)CC3)CC2)ccc1Nc1ncc2c(n1)N(C)c1ccccc1C(=O)N2C | YSK1 | KINOMEscan |  | 10 µM | baseline: DMSO control, lower = stronger binding | binding | 68% |

A few entries again (sample 2):
| Oligonucleotide | E-score |
| --- | --- |
| CTAGCGGA | -0.354 |
| CGTTTTAC | 0.123 |
